# Measurements pooled from the literature.
# Numbered parts are unrelated; each lists some results of a single study. Changes are numbered by the printed parent chain.

# Block 1
# Target: CCNE1, cyclin fold, Cln2 fusion (human)
# Technique: yeast growth competition, sequencing
# Medium: yeast
# Notes: weak parent motif
# Reference: not given
# Direction: higher = stronger binding
# Starting sequence: ORC1 docking peptide (human); PRARKRLELGNLG
Variant,normalised enrichment score
R4I,0.0277
K5R,0.634
E8D,1.5
L12K,0.118
G13P,-0.145
E8Q,0.822
P1G,-0.416
R2D,0.501
L9P,-0.271
G13E,0.612
L7R,0.597
E8Y,0.254
R6L,0.879
P1T,0.0277
R4D,0.483
A3V,-0.0777
K5Y,0.197
E8G,0.137
A3P,0.429
P1M,0.0314

# Block 2
# Target: Ras GTPase-activating protein-binding protein 1, full length (G3BP1, Homo sapiens, UniProt Q13283)
# UniProt Q13283, sequence (whole entry, looked up): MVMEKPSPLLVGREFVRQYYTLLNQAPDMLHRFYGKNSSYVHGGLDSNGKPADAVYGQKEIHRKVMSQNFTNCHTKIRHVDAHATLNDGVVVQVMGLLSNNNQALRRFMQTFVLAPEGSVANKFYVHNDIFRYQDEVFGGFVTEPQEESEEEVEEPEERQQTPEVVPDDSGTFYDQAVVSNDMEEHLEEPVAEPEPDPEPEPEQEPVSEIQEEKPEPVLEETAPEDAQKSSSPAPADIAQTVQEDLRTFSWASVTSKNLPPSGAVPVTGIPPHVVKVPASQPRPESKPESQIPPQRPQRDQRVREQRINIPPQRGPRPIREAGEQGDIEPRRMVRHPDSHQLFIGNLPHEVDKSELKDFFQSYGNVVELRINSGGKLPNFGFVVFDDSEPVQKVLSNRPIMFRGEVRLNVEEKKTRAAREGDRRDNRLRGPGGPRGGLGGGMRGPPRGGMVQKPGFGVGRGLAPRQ
# Technique: RNA Bind-n-Seq
# Molecule type: RNA
# Medium: in vitro
# Concentration: 200 nM
# Notes: whole 134-nt RNA, ends assumed
# With: 150 mM LiCl
# Reference: input library
# Direction: higher = stronger binding
# Each molecule: 7-deaza-guanosine replaces G
# Constant ends, left off below: GGGAGUUCUACAGUCCGACGAUC … UGGAAUUCUCGGGUGUCAAGG
Strand,log2 enrichment
UGGCCCUGGUGGCAUGCGGGGAGGAAGAGGUGGCCUCAUGGAUCGUGGUGGUCCCGGUGGAAUGUUCAGAGGUUGCCGUGGUGGAGACAG,0.285
ACCAUGCAGGUGGGCAUCUUUGGGAAGUGGGGCAAGGGGGGGAUAGGGAGGGGGGUAACACUUUGGGAACAGGUGGUCCCAGUUCGUUUC,0.345
CACAGACAACACGCACCCACACAGACACAGAGGGAAGGGGUUGGGAUGGGGACAGGGUGCAAAGCAGGGCGGGGUAGGACCCCAGCCCCU,0.0341
AGUCCUGUGCUACACAUCGUAUGUACCGAAUCGGGGCCCCCGGCCCCCGGCCCCCGGAAAGUAUUAUGUUACGCCGUUCGGAUCUGCACU,-1.67
UGGGAGGUGGAUUUUGUUUAUUUUUUUAGCUCAUUUCUAGGGGUGGGAAUUUUUUUUUAAUAUGUGUCAUGAAUAAAGUUGUUUUUGAAA,0.377
CCCAGACAACACGCACCCACACAGACACAGAGGGAAGGGGUUGGGAUGGGGACAGGGUGCACAGCAGGGCGGGGUAGGACCCCAGCCCCU,-1.34
CACAGACAACACGCACCCACACAGAUACAGAGGGAAGGGGUUGGGAUGGGGACAGGGUGCACAGCAGGGCGGGGUAGGACCCCAGCCCCU,0.28
CACAGACAACACAAACCCACACAGACACAGAGGGAAGGGGUUGGGAUGGGGACAGGGUGCACAGCAGGGCGGGGUAGGACCCCAGCCCCU,-0.0484
GCAGGAAGUAAAAACAAAUGGAAAUGCUUCGGAUAGUGGCAGUGGUGGGGGUUGCUAAGGAAAGGGUGGGAUGGGAGUGGGUAAAGAGUU,0.0339
AAGUCCUGUGCUACACAUCGUAUGUACCGAAUCGGGGUGGGGUGGGGUUUUUGGGGAAAGUAUUAUGUUACGCCGUUCGGAUCUGCACUU,-0.497
CUGUGCUACACAUCGUAUGUACCGAAUCGGGGCCCCCCCGGGGCCCCCCCGGCCCCCCCGGGAAAGUAUUAUGUUACGCCGUUCGGAUCU,-0.0351

# Block 3
# Target: TAR DNA-binding protein 43, full length, His tag (TARDBP, Homo sapiens, UniProt Q13148, residues 1-414)
# Technique: RNA Bind-n-Seq
# Molecule type: RNA
# Medium: in vitro
# Concentration: 20 nM
# Notes: 6-mer, flanks averaged, single round
# With: 150 mM LiCl
# Reference: input library
# Direction: higher = stronger binding
Strand,6-mer enrichment (R)
GAAUGU,1.29
AGGACU,0.981
UACCGC,0.887
UCAUGA,0.837
GGAUGG,1.27
UCAUUG,0.93
GUGGUG,1.78
GCGUUG,1.11
CGUGCG,1.08
ACUGUC,0.874
CACCGA,0.875
UUAAAG,0.911
GACGCC,0.955
CCCCAC,1.18
UCUAUA,0.901
CUUUCU,1.02
CCUAAG,0.847
AGGGCA,0.973
AAUAAA,1.08
CCCCCU,1.42
CAGUGC,0.944
GCGCUG,1
UCAGUU,0.943
GUCAGG,1.03
GAAACU,0.83

# Block 4
# Target: Prothrombin, mature alpha-thrombin (F2, Homo sapiens, UniProt P00734)
# Technique: aptamer microarray, sandwich
# Molecule type: DNA with 2'F-ANA
# Medium: in vitro
# Concentration: 200 nM
# Notes: whole 15-mer aptamer, many near background
# With: Cy3 exosite-II aptamer, 400 nM
# Direction: higher = stronger binding
# Strand: GGTTGGTGTGGTTGG
Modification,mean fluorescence intensity [a.u.]
2'F-ANA at 1 4 5 6 8 9 12 13,70.6
2'F-ANA at 2 3 7 8 11 12 15,1090
2'F-ANA at 1 2 6 8 9 15,187
2'F-ANA at 7 8 9 10 12 13 15,191
2'F-ANA at 2 4 5 6 8 9 10 12,57.6
2'F-ANA at 3 4 5 6 7 9 11 12 13,87.9
2'F-ANA at 2 4 5 7 10 11 12,55.5
2'F-ANA at 2 3 11 12 14,515
2'F-ANA at 2 3 4 5 8 9 10 11 13 14,64.2
2'F-ANA at 8 12 13,797
2'F-ANA at 5 8 9 11 12 13,128
2'F-ANA at 2 8 10 13 14 15,78.8
2'F-ANA at 1 9 10 15,58
2'F-ANA at 1 3 6 7 9 10 11 13 14,55.7
2'F-ANA at 3 5 7 9 13 15,81.4
2'F-ANA at 2 3 4 7 9 11 13 14 15,236
2'F-ANA at 3 4 6 9 10 11 12 13,231
2'F-ANA at 1 3 4 5 7 9 11 13 15,51.9
2'F-ANA at 2 3 6 13 14,379
2'F-ANA at 1 2 3 5 6 7 9 10 11 12 13 14 15,51.5
2'F-ANA at 5 7 10 12,50.5
2'F-ANA at 2 3 4 5 7 9 10 11 14,65.6
2'F-ANA at 5 6 7 8 10 12 14,71.6
2'F-ANA at 1 3 6 8 11 13 14 15,87.5
2'F-ANA at 2 8 11 12 14 15,184

# Block 5
# Target: CREB3L1, bZIP domain (human)
# Technique: DHFR protein complementation
# Medium: yeast
# Notes: single substitutions, most at no-binding floor
# Reference: wild-type JUN-FOS pair
# Direction: higher = stronger binding
# Starting sequence: JUN, bZIP domain (human); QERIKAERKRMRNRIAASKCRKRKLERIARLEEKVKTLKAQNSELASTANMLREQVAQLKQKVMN; partner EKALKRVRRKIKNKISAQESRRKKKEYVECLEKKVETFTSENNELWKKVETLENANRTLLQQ
Variant,binding fitness [natural log]
E54Y,-1.45
L45V,-1.51
S47R,-1.29
A29H,-1.5
K36L,-1.44
T48N,-1.4
L31I,-1.55
E44S,-1.51
N42M,-1.48
A40K,-1.54
R30V,-1.25
A46P,-1.55
A40D,-1.43
N42T,-1.46
R30Y,-1.38
S47N,-1.24
I28M,-1.55

# Block 6
# Target: Histone acetyltransferase KAT6A, winged helix 2, GST fusion (KAT6A, Homo sapiens, UniProt Q92794, residues 85-181)
# Technique: protein binding microarray
# Molecule type: double-stranded DNA, one strand shown
# Medium: in vitro
# Concentration: not given
# Notes: 8-mer, flanks averaged, mean of 2 arrays, mostly near background
# Reference: not given
# Direction: higher = stronger binding
# Target sequence (chain): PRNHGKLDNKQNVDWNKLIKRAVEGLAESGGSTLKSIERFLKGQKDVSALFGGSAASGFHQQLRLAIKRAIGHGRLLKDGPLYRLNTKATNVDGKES
Strand,E-score
GCCCTTTA,-0.164
GCTTATGA,0.0417
ACCTACAA,-0.0161
AAAGGTCC,0.0333
GCCGGAGA,0.0413
ATTAAAGA,0.128
ACGAGAGA,-0.056
AGGGCTAT,-0.337
CACACATG,-0.235
CGCGTGTA,0.0776
AACTCATT,-0.149
CGGCACCA,0.0836
AACATTAC,-0.18
AACCCACA,0.0863
AAGGACGT,-0.113
GACATCAC,-0.0526
CATGTTCA,-0.312
AACGTGGG,-0.129
AAAACAAG,0.0233
ATTGCTCA,0.0882
CTAACGCA,0.0415
ACGAAGAC,-0.0151
ATTTGAAG,-0.154
AGTACATC,-0.291
AAGCAAAG,-0.0514

# Further values, each from its own experiment
Substance,target,assay,test system,setting,scale,endpoint,value
"PhoQ, residues 284 288 289 292 302 303 SIHLQL","PhoP, residues 12 14 15 18 19 AGCRL (Escherichia coli, UniProt P23836)","Sort-seq, refers to: YFP reporter",E. coli,"PhoQ-PhoP variant library, with: 10 µM Mg2+","reference: high Mg2+ state, higher = stronger signaling",fold induction,18.5

# For quick reference, copied from above (block 6):
Strand,E-score
AAGCAAAG,-0.0514
ACCTACAA,-0.0161
AAAACAAG,0.0233
CTAACGCA,0.0415
AGGGCTAT,-0.337
ACGAAGAC,-0.0151
CGCGTGTA,0.0776
AAGGACGT,-0.113
GACATCAC,-0.0526
GCCGGAGA,0.0413
CACACATG,-0.235
